Results from different studies.
Parts stem from different laboratories: compare values within a part only. Values joined by “and” are separate records of one study, mostly repeats; a detail may differ.
Sequence of UniProt P53350 (whole entry, looked up): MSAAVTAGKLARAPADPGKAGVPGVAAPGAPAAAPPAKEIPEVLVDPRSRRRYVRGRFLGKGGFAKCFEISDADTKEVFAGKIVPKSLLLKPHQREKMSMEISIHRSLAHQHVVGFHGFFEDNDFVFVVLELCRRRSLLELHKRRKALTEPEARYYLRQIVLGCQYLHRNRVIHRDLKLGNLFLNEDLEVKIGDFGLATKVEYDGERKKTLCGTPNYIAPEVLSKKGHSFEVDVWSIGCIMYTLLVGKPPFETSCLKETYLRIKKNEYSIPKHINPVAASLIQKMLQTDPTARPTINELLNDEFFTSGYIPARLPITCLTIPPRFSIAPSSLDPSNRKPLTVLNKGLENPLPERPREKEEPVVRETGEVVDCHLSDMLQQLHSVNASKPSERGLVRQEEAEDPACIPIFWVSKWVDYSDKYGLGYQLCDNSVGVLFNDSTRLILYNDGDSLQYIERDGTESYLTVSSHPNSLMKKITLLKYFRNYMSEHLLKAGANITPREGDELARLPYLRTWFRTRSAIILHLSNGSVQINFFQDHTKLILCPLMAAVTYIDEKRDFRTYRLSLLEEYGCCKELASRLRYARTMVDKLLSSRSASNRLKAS
Sequence of UniProt Q59H18 (whole entry, looked up): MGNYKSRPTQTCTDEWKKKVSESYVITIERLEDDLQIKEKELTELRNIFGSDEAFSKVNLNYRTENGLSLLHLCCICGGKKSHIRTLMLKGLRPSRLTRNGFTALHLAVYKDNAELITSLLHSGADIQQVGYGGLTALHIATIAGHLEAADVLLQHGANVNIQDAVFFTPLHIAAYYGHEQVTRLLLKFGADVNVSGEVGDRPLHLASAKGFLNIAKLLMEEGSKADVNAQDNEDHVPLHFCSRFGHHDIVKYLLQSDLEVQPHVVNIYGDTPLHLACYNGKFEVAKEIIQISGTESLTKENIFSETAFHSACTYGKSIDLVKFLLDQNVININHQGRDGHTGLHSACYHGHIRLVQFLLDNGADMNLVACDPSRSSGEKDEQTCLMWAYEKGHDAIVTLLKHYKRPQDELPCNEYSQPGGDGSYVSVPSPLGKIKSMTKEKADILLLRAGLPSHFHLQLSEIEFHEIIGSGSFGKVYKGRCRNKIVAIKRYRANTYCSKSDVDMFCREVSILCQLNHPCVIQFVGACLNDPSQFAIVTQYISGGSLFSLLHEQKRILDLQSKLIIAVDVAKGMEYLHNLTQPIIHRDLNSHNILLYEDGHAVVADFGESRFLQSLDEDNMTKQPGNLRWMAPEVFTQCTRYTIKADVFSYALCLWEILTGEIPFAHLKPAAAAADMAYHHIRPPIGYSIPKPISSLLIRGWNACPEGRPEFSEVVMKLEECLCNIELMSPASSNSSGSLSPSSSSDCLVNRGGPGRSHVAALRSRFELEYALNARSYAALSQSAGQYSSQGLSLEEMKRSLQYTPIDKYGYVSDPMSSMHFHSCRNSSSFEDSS
Sequence of UniProt Q6PHR2 (whole entry, looked up): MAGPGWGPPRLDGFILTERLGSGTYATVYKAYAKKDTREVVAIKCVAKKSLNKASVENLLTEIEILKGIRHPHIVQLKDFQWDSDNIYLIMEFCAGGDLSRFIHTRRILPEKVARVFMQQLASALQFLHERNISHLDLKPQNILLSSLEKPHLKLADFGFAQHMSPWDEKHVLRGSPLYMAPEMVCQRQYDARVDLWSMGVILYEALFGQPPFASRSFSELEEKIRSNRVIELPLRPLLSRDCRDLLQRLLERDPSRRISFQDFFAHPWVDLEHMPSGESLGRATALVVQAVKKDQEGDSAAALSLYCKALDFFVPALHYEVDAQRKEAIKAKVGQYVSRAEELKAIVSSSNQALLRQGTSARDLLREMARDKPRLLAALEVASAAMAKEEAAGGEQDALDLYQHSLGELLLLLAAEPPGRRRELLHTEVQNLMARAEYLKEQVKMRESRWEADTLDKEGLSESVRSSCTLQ

Sample 1
Cell line: mouse MPNST tumor cells
Method: high-content nuclear imaging
Measured: cell number
Concentration: 10 µM
Time: 12 h
Setting: mean of 2 replicates
Reference: plate mean
Direction: higher = more cells
| SMILES | nuclei count |
| --- | --- |
| CCC(=O)O[C@@](Cc1ccccc1)(c1ccccc1)[C@@H](C)CN(C)C | 1.93 z-score |
| O=C(N[C@H]1CN2CCC1CC2)c1cc2ccoc2cn1 | 0.844 z-score |
| C[N+]12CCC(CC1)C(OC(=O)C(O)(c1ccccc1)c1ccccc1)C2 (stereo not drawn) | 0.374 z-score |
| FC(F)(F)c1cccc(C2=CCN(CCc3ccc4ccccc4c3)CC2)c1 | -0.527 z-score |

Sample 2
Compound: O=C1CCC(N2Cc3c(ccc4c3OCC43CCN(Cc4ccccc4)CC3)C2=O)C(=O)N1 (stereo not drawn)
Matrix: plasma
| system | conditions | plasma concentration |
| --- | --- | --- |
| Sprague Dawley rat, male | oral, 3 mg/kg, 1 h | 107 ng/mL and 82.2 ng/mL |
| Sprague Dawley rat, male | intravenous, 1 mg/kg, 4 h | 70.6 ng/mL and 70.5 ng/mL |
| male Sprague Dawley rats | oral, 3 mg/kg, 8 h | 31.4 ng/mL |
| male Sprague Dawley rats | intravenous, 1 mg/kg, 2 h | 135 ng/mL |
| male Sprague Dawley rats | oral, 3 mg/kg, 4 h | 229 ng/mL |
| ICR mouse, male | intravenous, 1 mg/kg, 6 h | 7.34 ng/mL and 4.94 ng/mL and 12.9 ng/mL |

Sample 3
SMILES: Cn1cncc1[C@](O)(COc1ccc(C#N)cc1-c1ccc(OC(F)(F)F)cc1)c1ccc(C#N)cc1
Observed: cell-free assay
Method: competition with immobilised ligand
Concentration: 1 µM
| target | remaining binding |
| --- | --- |
| Tyrosine-protein kinase ABL1, phosphorylated (ABL1, Homo sapiens, UniProt P00519, F317L) | 100% |
| RPS6KB1 (Homo sapiens, UniProt P23443) | 96% |
| CAMK1 (Homo sapiens, UniProt Q14012) | 99% |
| TNNI3K (Homo sapiens, UniProt Q59H18) | 82% |
| ULK3 (Homo sapiens, UniProt Q6PHR2) | 88% |
| MAP3K15 (Homo sapiens, UniProt Q6ZN16) | 90% |
| WEE1 (Homo sapiens, UniProt P30291) | 100% |
| ERN1 (Homo sapiens, UniProt O75460) | 100% |
| COQ8B (Homo sapiens, UniProt Q96D53) | 72% |
| MAP3K1 (Homo sapiens, UniProt Q13233) | 90% |
| PIM3 (Homo sapiens, UniProt Q86V86) | 89% |
| PIK3CA (Homo sapiens, UniProt P42336, C420R) | 100% |
| STK26 (Homo sapiens, UniProt Q9P289) | 100% |
| TAOK2 (Homo sapiens, UniProt Q9UL54) | 98% |
| MAP3K3 (Homo sapiens, UniProt Q99759) | 100% |
| MAPK7 (Homo sapiens, UniProt Q13164) | 93% |
| PLK1 (Homo sapiens, UniProt P53350) | 77% |
| WNK3 (Homo sapiens, UniProt Q9BYP7) | 100% |

Sample 4
Target: DNA polymerase theta, ATPase domain (POLQ, Homo sapiens, UniProt O75417)
Sequence of UniProt O75417 (whole entry, unmodified, looked up): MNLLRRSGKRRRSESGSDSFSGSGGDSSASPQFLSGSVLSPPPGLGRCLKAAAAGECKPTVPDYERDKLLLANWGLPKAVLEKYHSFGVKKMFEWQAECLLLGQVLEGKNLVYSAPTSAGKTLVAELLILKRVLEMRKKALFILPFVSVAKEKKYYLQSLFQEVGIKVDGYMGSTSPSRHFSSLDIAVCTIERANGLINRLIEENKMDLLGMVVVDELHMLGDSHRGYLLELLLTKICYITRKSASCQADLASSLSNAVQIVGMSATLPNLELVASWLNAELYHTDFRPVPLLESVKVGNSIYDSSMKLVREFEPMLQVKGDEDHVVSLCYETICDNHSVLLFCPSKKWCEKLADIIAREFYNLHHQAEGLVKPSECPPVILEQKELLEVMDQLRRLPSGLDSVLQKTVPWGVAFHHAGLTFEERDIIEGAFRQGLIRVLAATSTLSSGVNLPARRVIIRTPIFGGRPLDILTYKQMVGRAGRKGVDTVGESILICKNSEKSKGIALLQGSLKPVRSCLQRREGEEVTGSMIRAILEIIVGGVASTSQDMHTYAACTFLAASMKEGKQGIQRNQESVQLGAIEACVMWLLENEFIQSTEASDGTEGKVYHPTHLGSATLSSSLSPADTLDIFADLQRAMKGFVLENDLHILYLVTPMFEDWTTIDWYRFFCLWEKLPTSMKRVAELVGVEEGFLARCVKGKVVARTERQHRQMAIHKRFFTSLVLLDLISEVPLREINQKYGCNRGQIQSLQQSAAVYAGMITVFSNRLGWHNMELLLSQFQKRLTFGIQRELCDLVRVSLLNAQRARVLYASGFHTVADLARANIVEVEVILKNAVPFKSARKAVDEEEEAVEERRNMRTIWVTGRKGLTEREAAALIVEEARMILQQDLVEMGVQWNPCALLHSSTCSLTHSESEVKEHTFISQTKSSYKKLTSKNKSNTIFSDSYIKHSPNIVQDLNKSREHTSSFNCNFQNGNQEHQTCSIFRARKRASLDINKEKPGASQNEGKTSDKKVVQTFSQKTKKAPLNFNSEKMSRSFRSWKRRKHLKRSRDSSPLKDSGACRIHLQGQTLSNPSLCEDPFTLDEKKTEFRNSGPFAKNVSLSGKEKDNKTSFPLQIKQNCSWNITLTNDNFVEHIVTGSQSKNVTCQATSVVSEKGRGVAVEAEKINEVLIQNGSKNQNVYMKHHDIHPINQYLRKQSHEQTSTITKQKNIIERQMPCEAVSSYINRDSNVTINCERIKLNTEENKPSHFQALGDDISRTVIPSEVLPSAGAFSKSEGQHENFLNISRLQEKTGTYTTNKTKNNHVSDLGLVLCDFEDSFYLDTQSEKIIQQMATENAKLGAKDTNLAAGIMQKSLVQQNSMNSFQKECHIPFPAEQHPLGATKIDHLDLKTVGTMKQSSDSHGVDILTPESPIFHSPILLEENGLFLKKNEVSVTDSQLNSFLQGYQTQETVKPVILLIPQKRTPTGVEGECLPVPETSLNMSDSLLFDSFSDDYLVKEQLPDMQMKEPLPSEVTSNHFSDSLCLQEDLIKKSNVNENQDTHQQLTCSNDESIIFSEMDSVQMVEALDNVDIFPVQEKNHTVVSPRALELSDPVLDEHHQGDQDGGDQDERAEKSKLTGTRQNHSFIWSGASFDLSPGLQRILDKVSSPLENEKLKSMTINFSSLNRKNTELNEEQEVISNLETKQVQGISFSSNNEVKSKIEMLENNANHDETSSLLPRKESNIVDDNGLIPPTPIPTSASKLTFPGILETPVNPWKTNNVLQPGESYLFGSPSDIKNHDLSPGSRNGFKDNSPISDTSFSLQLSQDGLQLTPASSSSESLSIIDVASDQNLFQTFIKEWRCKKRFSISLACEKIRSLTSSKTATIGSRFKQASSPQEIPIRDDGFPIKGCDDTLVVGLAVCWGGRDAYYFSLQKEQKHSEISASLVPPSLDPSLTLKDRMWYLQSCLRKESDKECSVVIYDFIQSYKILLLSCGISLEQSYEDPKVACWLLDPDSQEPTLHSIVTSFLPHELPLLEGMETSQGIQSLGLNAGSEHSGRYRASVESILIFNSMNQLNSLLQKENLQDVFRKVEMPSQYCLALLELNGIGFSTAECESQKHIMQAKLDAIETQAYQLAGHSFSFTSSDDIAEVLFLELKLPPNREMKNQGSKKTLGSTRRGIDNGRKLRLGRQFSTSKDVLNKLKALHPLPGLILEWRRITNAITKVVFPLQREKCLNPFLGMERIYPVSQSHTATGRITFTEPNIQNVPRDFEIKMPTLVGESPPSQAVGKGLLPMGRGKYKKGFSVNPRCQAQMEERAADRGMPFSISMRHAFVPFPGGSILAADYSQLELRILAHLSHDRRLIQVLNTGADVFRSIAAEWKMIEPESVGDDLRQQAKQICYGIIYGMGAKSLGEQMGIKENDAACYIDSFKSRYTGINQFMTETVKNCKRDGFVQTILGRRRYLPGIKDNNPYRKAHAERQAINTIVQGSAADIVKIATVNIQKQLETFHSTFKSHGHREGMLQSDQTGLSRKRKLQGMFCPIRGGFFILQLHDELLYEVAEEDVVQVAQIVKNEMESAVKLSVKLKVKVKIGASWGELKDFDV
Observed: enzyme activity
Action: inhibitor
Concentration: 77 µM
Reference: untreated
| SMILES | remaining activity [%] |
| --- | --- |
| CNc1ccc2oc(C[C@H]3O[C@@]4(CC[C@H]3C)O[C@H]([C@H](C)C(=O)c3ccc[nH]3)[C@H](C)C[C@H]4C)nc2c1C(=O)O | 97.8 |
| CO[C@H]1CC=C2CCN3CCC4=C(CC(=O)OC4)[C@]23C1 | 101 |
| CCC(=O)O[C@H]1CC[C@H]2[C@@H]3CCC4=CC(=O)CC[C@]4(C)[C@H]3CC[C@]12C | 92.2 |
| CC[C@@H](C(N)=O)N1CCCC1=O | 99.5 |

Sample 5
Cell line: A-375
Concentration: 100 µM
Time: 36 h
| SMILES | viability |
| --- | --- |
| Cc1cccc(C)c1N=C1NCCCS1 | 114% |
| C=CC[C@]1(O)CC[C@H]2[C@@H]3CCC4=CCCC[C@@H]4[C@H]3CC[C@@]21C | 1.54% |
| C=C1CC[C@@]2(O)[C@H]3Cc4ccc(O)c5c4[C@@]2(CCN3CC2CC2)[C@H]1O5 | 110% |
| CC(O)(CS(=O)(=O)c1ccc(F)cc1)C(=O)Nc1ccc(C#N)c(C(F)(F)F)c1 (stereo not drawn) | 43.6% |

Further values, each from its own experiment
Concentration: 10 µM
CAMK2A: Calcium/calmodulin-dependent protein kinase type II subunit alpha (CAMK2A, Homo sapiens, UniProt Q9UQM7)
Sequence of UniProt Q9UQM7 (whole entry, looked up): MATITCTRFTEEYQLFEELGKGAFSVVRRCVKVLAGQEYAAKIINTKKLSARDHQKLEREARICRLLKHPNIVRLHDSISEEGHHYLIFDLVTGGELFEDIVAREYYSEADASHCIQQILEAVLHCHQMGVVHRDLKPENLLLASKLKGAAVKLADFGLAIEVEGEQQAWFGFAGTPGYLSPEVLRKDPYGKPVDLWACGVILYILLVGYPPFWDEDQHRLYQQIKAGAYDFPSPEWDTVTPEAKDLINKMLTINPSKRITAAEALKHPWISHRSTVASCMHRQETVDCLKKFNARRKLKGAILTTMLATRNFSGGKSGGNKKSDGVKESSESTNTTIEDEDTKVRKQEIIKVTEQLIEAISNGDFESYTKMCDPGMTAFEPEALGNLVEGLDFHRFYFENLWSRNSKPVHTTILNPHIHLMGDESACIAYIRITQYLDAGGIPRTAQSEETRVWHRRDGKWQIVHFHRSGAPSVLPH
| SMILES | target | assay | inhibition [%] |
| --- | --- | --- | --- |
| N#C[C@@H](O[C@@H]1O[C@H](CO[C@@H]2O[C@H](CO)[C@@H](O)[C@H](O)[C@H]2O)[C@@H](O)[C@H](O)[C@H]1O)c1ccccc1 | CAMK2A | enzyme activity, inhibitor | 12 |
| Cc1nc(Nc2ncc(C(=O)Nc3c(C)cccc3Cl)s2)cc(N2CCN(CCO)CC2)n1 | LTK (Homo sapiens, UniProt P29376) |  | < 50 |
| CC[C@H]1/C=C/C=C/C[C@@H](C)[C@H](O)[C@@](C)(O)C(=O)[C@@H](C)[C@H](O)[C@@H](C)C(=O)[C@@H](C)[C@H](O)[C@@H](C)/C=C/C(=O)O[C@@H]2[C@H](C)[C@H](CC1)O[C@]1(CC[C@H](C)[C@H](C[C@@H](C)O)O1)[C@H]2C | CAMK2A | enzyme activity, inhibitor | -41 |

Some of these lines once more (sample 2):
| system | conditions | plasma concentration |
| --- | --- | --- |
| Sprague Dawley rat, male | intravenous, 1 mg/kg, 4 h | 70.6 ng/mL and 70.5 ng/mL |
| male Sprague Dawley rats | oral, 3 mg/kg, 8 h | 31.4 ng/mL |
| male Sprague Dawley rats | intravenous, 1 mg/kg, 2 h | 135 ng/mL |
